{"data": "Earlier results as cited in several papers", "B1": "CCL4; sequence looked up; chain APMGSDPPTACCFSYTARKLPRNFVVDYYETSSLCSQPAVVFQTKRSKQVCADPSESWVQEYVYDLELN", "B2": "CX3CL1, human; sequence looked up; chain QHHGVTKCNITCSKMTSKIPVALLIHYQQNQASCGKRAIILETRQHRLFCADPKEQWVKDAMQHLDRQAAALTRNGGTFEKQIGEVKPRTTPAAGGMDESVVLEPEATGESSSLEPTPSSQEAQRALGTSPELPTGVTGSSGTRLPPTPKAQDGGPVGTELFRVPPVSTAATWQSSAPHQPGPSLWAEAKTSEAPSTQDPSTQASTASSPAPEENAPSEGQRVWGQGQSPRPENSLEREEMGPVPAHTDAFQDWGPGSMAHVSVVPVSSEGTPSREPVASGSWTPKAEEPIHATMDPQRLGVLITPVPDAQAATRRQAVGLLAFLGLLFCLGVAMFTYQSLQGCPRKMAGEMAEGLRYIPRSCGSNSYVLVPV"}
{"Substance": "CCL5", "target or system": "US28 D15A", "test": "binding, radioligand competition", "quantity": "Kd", "result": "1.9 nM"}
{"Substance": "pegcetacoplan", "system": "rabbit", "conditions": "subcutaneous, 28 days, daily, GLP study", "quantity": "level, dose, no toxic effect", "result": "7 mg/kg/day"}
{"Substance": "B1 (CCL4)", "target or system": "US28 Y16F", "test": "binding, radioligand competition", "quantity": "Kd", "result": "10.2 nM"}
{"Substance": "AEQNPIYWARYADWLFTTPLLLLDLALLVDADEGT (pHLIP (Halobacterium salinarum))", "test": "NMR, measured: Asp31", "system": "peptide, lipid membrane", "conditions": "numbering of the source", "quantity": "pKa", "result": 6.5}
{"Substance": "abciximab", "system": "PCI patients", "conditions": "dose not given, re-administration", "quantity": "anti-drug antibody incidence", "result": "20%"}
{"Substance": "enfortumab vedotin", "system": "monkey", "quantity": "clearance", "result": "1.2 mL/h/kg"}
{"Substance": "cucurbit[7]uril", "system": "mice", "conditions": "intravenous", "quantity": "highest non-toxic dose", "result": "200 mg/kg"}
{"Substance": "B2 (CX3CL1, human)", "target or system": "US28 T11A", "test": "binding, radioligand competition", "quantity": "Kd", "result": "0.5 nM"}
